Measurements collected from several papers.
Parts stem from different laboratories: compare values within a part only. Positions count from the first letter of the parent shown.

Series 1 — technique: protein binding microarray; form: double-stranded DNA, one strand shown; matrix: in vitro; tested at: not given; relative to: not given; direction: higher = stronger binding
Target: Histone acetyltransferase KAT6A, both winged helices, GST fusion (KAT6A, Homo sapiens, UniProt Q92794, residues 1-181)
Notes: 8-mer, flanks averaged, mean of 2 arrays, mostly near background
Residues (chain): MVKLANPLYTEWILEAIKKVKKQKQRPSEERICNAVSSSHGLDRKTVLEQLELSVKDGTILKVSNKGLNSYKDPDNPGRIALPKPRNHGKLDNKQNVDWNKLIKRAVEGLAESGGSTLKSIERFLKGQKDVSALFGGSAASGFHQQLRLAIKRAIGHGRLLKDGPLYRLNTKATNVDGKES
`TGGGGAAA` gave an E-score of -0.213.
With `AGCCGTTA` the E-score was 0.248.
`GGGGTTTA` gave an E-score of -0.0205.
With `AGGTAATG` the E-score was -0.111.
`AAAGAGCC` has an E-score of -0.00943.
For `GACGCCCA`, the E-score was 0.0138.
`ACACCGGA` gave an E-score of -0.0122.
`AACATTGG` gave an E-score of -0.24.

Series 2 — technique: universal PBM; form: double-stranded DNA, one strand shown; matrix: in vitro; tested at: not given; direction: higher = stronger binding
Target: Sal-like protein 4, full length isoform B (SALL4, Homo sapiens, UniProt Q9UJQ4-2, residues 1-616)
Notes: 8-mer, flanks averaged, mean of replicates
For `AACCGAAA`, the E-score was 0.122.
`GCACCCAA` has an E-score of -0.26.
With `TAGTAATA` the E-score was 0.415.
The E-score of `GCCGCAAC` is reported as -0.117.
`AAGATGAT` gave an E-score of 0.211.

Series 3 — target: CCND1, cyclin fold, Cln2 fusion (human); technique: yeast growth competition, sequencing; matrix: yeast; notes: weak parent motif; relative to: not given; direction: higher = stronger binding
Starting sequence: MICAL3 docking peptide (human); LQLRRQLSFSEDS
Under “normalised enrichment score”, `F9E` is recorded as 0.0678.
`L7S` — result for “normalised enrichment score”: -0.0624.
`Q2D`: “normalised enrichment score” 0.677.

Single results of other studies
`PhoQ, residues 284 288 289 292 302 303 SSLVEF` has a fold induction of 4.85 (PhoP, residues 12 14 15 18 19 LHHVQ (Escherichia coli, UniProt P23836); Sort-seq, refers to: YFP reporter; E. coli; PhoQ-PhoP variant library, with: 10 µM Mg2+; relative to: high Mg2+ state, higher = stronger signaling).

A few entries again (series 1):
`GGGGTTTA` gave an E-score of -0.0205.
